Assay results of several laboratories.
A part holds a random share of what one study measured. Positions count from the first letter of the parent shown.

Study 1 — target: CCNE2, cyclin fold, Cln2 fusion (human); method: yeast growth competition, sequencing; sample: yeast; notes: strong parent motif; baseline: not given; direction: higher = stronger binding
Starting sequence: RBL1 docking peptide (human); GSAKRRLFGEDPP
| Substitution | normalised enrichment score |
| --- | --- |
| F8R | -0.133 |
| K4C | 3.58 |
| G9T | 5.3 |
| D11I | 3.14 |
| R5A L7A | -0.418 |
| G9W | 5.02 |
| P12L | 3.8 |
| K4T | 2.06 |
| K4D | -0.0642 |
| P13D | 3.93 |
| K4M | 1.3 |
| S2Y | 3.07 |
| P13F | 3.74 |
| L7W | 0.921 |
| R5K | 1.28 |
| A3V | 6.37 |
| P12K | 4.39 |
| R6V | 3.07 |
| K4A | 1.43 |
| L7R | 0.911 |
| S2I | 2.66 |
| G1V | 5.35 |
| E10P | 4.26 |
| G9D | 4.66 |
| D11Q | 4.3 |

Study 2 — method: protein-binding microarray; form: double-stranded DNA, one strand shown; sample: in vitro; tested at: 940 nM top; notes: 60-bp whole probe; added: salmon DNA 0.4 mg/ml; baseline: random background probes; direction: higher = stronger binding; all sequences stand within: GCCTAGCAC … GTCTTGATTCGCTTGACGCTGCTG
Target: Interferon regulatory factor 5, full length, phosphomimetic (IRF5, Homo sapiens, UniProt Q13568-2, residues 1-514, S451D/S453D/S456D/S462D)
| Sequence | fitted relative affinity [z-score] |
| --- | --- |
| TTAGATTTCAGACGGGATTAGTGCTAG | -0.282 |
| GACGAAGTGGGGTATCGAGACGTGCTA | 1.17 |
| TTAGATATCAGTTTCGGTTAGTGCTAG | 9.33 |
| GACGGTATCGATTTTCGGGACGTGCTA | 6.07 |
| TCATCTATCTTAAATAGGACTGTGCTA | -0.133 |
| CTCCCTCAGGGTTTCAGATGGTGCTAG | 0.0318 |
| GACGATCTCAGACTGGCGACGTGCTAG | -0.569 |
| TCAACCTTCGAGTCTGCAACTGTGCTA | -0.201 |
| GACGGACTGCTGTTCCTGACGTGCTAG | -0.58 |
| GACGATATCAGTATCGAGCCGTGCTAG | 1.21 |
| GACGCTTTCGGTTTCGGGACGTGCTAG | 8.17 |
| GACGGACTGGGTTTCCGGACGTGCTAG | -0.137 |
| CCAACTCGCCTTTTTTGTTGGTGCTAG | 0.763 |
| GACGGTATCCTTCTCCTCACGTGCTAG | 0.677 |
| GACGGCCTGGACACTGGGGACGTGCTA | -0.571 |
| TTAGTTATCGACTTTCGGTTAGTGCTA | 3.45 |
| TTAGGTATCGACTTTTGGTTAGTGCTA | 4.43 |
| TTAGGATTGGACTATCGGTTAGTGCTA | -0.0393 |
| GGAGTGGGAAGCTTCGCTCCGTGCTAG | -0.308 |
| GAGGGTATCGGACTGGGGACGTGCTAG | 1.19 |
| GACGGTCCCGGTTTCGGGACGTGCTAG | 3.57 |
| TTGGGTATCGACACTGGGTTAGTGCTA | 4.17 |
| TTAGGTTACGACTTTCGGTTAGTGCTA | 2.76 |
| TTAGATTTCAGATTCGATTAGTGCTAG | 0.506 |
| CAGAGTCTAGCCATTGTGGGTGTGCTA | -0.505 |

Study 3 — method: universal PBM; form: double-stranded DNA, one strand shown; sample: in vitro; tested at: 600 nM; direction: higher = stronger binding
Target: Sal-like protein 4, full length isoform A (SALL4, Homo sapiens, UniProt Q9UJQ4, residues 1-1053)
UniProt Q9UJQ4, sequence (whole entry, looked up): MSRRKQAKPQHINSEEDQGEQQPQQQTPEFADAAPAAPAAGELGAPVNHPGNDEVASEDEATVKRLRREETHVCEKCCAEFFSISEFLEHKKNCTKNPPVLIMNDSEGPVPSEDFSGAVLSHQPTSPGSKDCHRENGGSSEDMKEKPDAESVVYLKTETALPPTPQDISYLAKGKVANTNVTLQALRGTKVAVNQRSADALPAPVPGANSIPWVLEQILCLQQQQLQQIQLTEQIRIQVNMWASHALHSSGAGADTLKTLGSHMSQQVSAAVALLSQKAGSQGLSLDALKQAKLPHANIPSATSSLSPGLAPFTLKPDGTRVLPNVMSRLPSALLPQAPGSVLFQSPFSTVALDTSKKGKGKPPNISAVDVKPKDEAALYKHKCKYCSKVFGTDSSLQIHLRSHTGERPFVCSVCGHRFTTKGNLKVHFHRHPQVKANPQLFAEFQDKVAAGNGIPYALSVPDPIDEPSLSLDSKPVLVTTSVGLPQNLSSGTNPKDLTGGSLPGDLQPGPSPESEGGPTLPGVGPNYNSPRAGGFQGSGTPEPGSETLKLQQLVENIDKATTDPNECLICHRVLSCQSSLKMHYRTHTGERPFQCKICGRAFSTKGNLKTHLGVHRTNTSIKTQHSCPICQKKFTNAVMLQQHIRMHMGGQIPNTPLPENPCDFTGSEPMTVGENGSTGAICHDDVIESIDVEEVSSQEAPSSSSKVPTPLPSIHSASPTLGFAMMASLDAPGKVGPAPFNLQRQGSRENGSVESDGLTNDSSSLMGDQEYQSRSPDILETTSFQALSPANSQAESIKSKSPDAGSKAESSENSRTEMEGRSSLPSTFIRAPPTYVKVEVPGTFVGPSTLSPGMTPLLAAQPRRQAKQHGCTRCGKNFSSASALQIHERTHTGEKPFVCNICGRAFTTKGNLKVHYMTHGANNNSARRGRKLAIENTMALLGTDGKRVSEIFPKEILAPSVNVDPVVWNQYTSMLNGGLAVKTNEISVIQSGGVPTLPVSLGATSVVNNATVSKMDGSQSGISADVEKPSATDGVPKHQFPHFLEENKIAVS
Notes: 8-mer, flanks averaged, mean of replicates
| Sequence | E-score |
| --- | --- |
| ATACCCCC | -0.0519 |
| CACTATAG | 0.189 |
| GGCATAAA | 0.23 |
| GTTATCGA | 0.128 |
| CTATGCAG | 0.0949 |
| TAGCGATA | 0.21 |
| TAAGGCCA | -0.121 |
| CGAAGTCA | 0.0362 |
| ACCGAAAC | -0.135 |
| AGGGCGGA | -0.251 |
| GAAACAAC | 0.00446 |
| AAACGACG | 0.102 |
| CACGTGTA | -0.0344 |
| GCAGAACC | -0.213 |
| GCTGTTCA | 0.0454 |
| AACGTCTT | 0.109 |
| AAGTGTCG | -0.016 |
| ATCGGACC | -0.28 |
| CATGAAGC | 0.0372 |
| TGCTTGAA | 0.169 |
| GACTCCAC | -0.25 |
| CCCAACGC | -0.261 |

Study 4 — method: RNA Bind-n-Seq; form: RNA; sample: in vitro; tested at: not given; baseline: input RNA pool; direction: higher = stronger binding
Target: RING finger protein unkempt homolog, zinc fingers 1-6, GST-SBP tag (UNK, Homo sapiens, UniProt Q9C0B0, residues 30-357)
UniProt Q9C0B0, sequence (30-357, looked up): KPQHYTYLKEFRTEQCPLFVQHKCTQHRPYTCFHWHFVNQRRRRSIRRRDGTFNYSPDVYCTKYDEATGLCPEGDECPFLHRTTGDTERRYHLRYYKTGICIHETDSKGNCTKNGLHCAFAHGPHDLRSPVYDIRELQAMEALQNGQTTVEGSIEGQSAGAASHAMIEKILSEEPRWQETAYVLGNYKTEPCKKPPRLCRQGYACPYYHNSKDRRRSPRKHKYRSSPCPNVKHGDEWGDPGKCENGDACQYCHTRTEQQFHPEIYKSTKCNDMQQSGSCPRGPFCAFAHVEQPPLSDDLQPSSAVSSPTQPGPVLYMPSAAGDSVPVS
Notes: RNA with constant flanks, human and mouse sites, ends assumed
| Sequence | bound/input enrichment |
| --- | --- |
| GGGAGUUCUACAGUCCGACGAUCGGGGCCCCGAAGGUAGAGGAGGCAGCGCGCACGGGCUGGACCUCCUCCUACCCUGGGAAGUUGGGGCAGUUUCCCCCUGCACCUGCCUCUUCCUUAGGCCUGGCAGUGGCCCGCGAUGAGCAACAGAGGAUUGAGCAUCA | 0.11 ratio |
| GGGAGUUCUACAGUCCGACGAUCGGAGGCUGGGAGAUGAUCAGAAAAAUUGGAGACACAUCAGUCAGUUAUAAAUAUACCUCAAGAUAUGUGCUGAAGGCAGGCCAGACUGUUACAAUUUGGGCUGCAAACGCUGGUGUCACACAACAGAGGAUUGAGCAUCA | 0.382 ratio |
| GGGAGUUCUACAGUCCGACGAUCGUUUGAGCCUAGCAAUUGCAGAACUCAUAAAAUUGCUUGUGAAAUUACACACCAUAUUACUAGCAUAUACAUUGCAGUGCUCCAAUCAUGCUAACAGAUAAUAGAUUUUUCUUUAAGAAUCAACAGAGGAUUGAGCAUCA | 0.646 ratio |
| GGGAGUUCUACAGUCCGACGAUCAUAAAUACAUUUAAAUUGCUCUCAUAUGCCUCCUAUUGUAUUGAGCAUGGUGACCUGGAGCUGGCAGCAAAGUUUGUCAAUCAGCUCAAAGGGGAGUCCAGAAGAGUGGCACAGGACUGGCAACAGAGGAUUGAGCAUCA | 0.262 ratio |
| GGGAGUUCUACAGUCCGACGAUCCAUGGCUGUGCUGGUCGUUCUCCUGUUCUUUCUGGUGGCGGGUGCUUUAGGGAAUGAAUUUAGCAUAUUAAGAUCGCCAGGGUCUGUUGUUUUCCGAAAUGGAAAUUGGCCUAUACCAGGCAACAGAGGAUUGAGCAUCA | 8.29 ratio |
| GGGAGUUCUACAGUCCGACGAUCAGGCCACAAGAUUUUAAAUAUGGGCCUUGGCUUCCUGCACUAGAGAUUACGUCCAUCUAGAUGGGUGCUGCAGGUUUUUGUUUUCUGUUUUUUUGGUUUUUUUUUUUUUUGCAGUGAUAGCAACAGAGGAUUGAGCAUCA | 2.84 ratio |
| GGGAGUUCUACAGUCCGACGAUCCCACAUUAGCACCCUGCCAGCCUACCAGCCUCUCUGUGCACAGCUUCUAAUGUUAUGAUCUAGCUAGAUUUUUAUUUAAAAUAUGAAAAACUGCUUUUCCCAAGACGUUUUUUAAAAGGACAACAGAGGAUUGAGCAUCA | 58.4 ratio |
| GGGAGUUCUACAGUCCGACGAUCCGAGCUGGAUCCAGAGUUGCAUACAGACCAAUUUCUGCAUCAGUGUUAUCUCGACCAGAGGCUAGUAGGACUGGAGAGGGCUCUACGGUAUUUAAUGGGGCCCAGAAUGGUGUGUCUCAGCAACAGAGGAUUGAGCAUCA | 0.14 ratio |
| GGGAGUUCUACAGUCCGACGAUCGAAAAGAGUGGAAAACAAGGCUCUCCAGACCAAGUAAGUCCAGUUUCUGAAAUGACUUCUACUAGUCUUUACCAAGACAAACAGGAAGGGAAAAGCACAGACUUUGCACCAAUAAAAGAACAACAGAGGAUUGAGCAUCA | 0.45 ratio |
| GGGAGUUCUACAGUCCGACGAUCGAGGACAAGAAAGAGCAGGAGUCUGAUGAGGAAGAGGAAGAAGAGGAAGAGGACGAGCCUUCAGGAGCCACCACAAGAUCCACCACCAGAUCAGAGGCUCAGAGAUCAAAGACACAGCUCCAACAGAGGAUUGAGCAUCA | 0.473 ratio |
| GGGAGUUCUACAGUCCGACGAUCAAUGCUGGUUGUCUGGUUUUGUUGUUUUUACAGGUGUUAUGAAAUAAUAAGAAAAUGAAGUAUUUAAAAUGUUCCAAUAAAGCGGGGUUUUGUUAUCUAAUAUAUUAUCAUGUACCUAUUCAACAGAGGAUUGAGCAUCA | 0.26 ratio |

A few entries again (study 4):
| Sequence | bound/input enrichment |
| --- | --- |
| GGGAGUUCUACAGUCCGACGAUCAUAAAUACAUUUAAAUUGCUCUCAUAUGCCUCCUAUUGUAUUGAGCAUGGUGACCUGGAGCUGGCAGCAAAGUUUGUCAAUCAGCUCAAAGGGGAGUCCAGAAGAGUGGCACAGGACUGGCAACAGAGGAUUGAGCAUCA | 0.262 ratio |
| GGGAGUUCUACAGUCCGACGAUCCAUGGCUGUGCUGGUCGUUCUCCUGUUCUUUCUGGUGGCGGGUGCUUUAGGGAAUGAAUUUAGCAUAUUAAGAUCGCCAGGGUCUGUUGUUUUCCGAAAUGGAAAUUGGCCUAUACCAGGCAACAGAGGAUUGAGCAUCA | 8.29 ratio |
| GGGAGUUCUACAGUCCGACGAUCAGGCCACAAGAUUUUAAAUAUGGGCCUUGGCUUCCUGCACUAGAGAUUACGUCCAUCUAGAUGGGUGCUGCAGGUUUUUGUUUUCUGUUUUUUUGGUUUUUUUUUUUUUUGCAGUGAUAGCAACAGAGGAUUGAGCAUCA | 2.84 ratio |
| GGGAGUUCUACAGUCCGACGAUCCCACAUUAGCACCCUGCCAGCCUACCAGCCUCUCUGUGCACAGCUUCUAAUGUUAUGAUCUAGCUAGAUUUUUAUUUAAAAUAUGAAAAACUGCUUUUCCCAAGACGUUUUUUAAAAGGACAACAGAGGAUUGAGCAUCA | 58.4 ratio |
